Measurements gathered from unrelated publications.
Parts stem from different laboratories: compare values within a part only. Substitutions count along the parent as printed.

Block 1 — method: RNAcompete; form: RNA; matrix: in vitro; tested at: 20 nM; setting: 7-mer, probes averaged, single round; baseline: mean of 7-mers; direction: higher = stronger binding
Target: PABPC1L2, full length, GST fusion (mouse, UniProt A0ABA7IW68)
Construct (chain): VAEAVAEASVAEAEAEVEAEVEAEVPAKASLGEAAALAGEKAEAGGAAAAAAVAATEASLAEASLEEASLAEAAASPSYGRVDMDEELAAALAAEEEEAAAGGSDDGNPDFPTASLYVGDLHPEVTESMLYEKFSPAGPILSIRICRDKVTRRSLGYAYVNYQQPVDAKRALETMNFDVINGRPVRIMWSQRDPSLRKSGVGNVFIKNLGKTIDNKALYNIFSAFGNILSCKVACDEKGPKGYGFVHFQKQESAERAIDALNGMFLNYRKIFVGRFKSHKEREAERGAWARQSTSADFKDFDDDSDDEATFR
Oligonucleotide | 7-mer Z-score
UAGCAUC | -0.148
CGCCCCA | -0.438
UGAAAGC | -0.0536
UCCGGAU | -0.255
GUGCCGA | -0.0409
GGCACCU | -0.146
GUUGGAG | -0.0627
GUUCGCA | -0.427
GAUCCCA | -0.269
UCAUGGG | 0.0623
GAUGACC | -0.19
AGAUAAA | 1.94
GCGAACC | -0.079
AGUGAAA | 1.1
CGAGCCC | -0.224
CCUCGAG | -0.22
AAUCUGC | -0.0192
CGUCCUA | -0.411

Block 2 — method: RNA Bind-n-Seq; form: RNA; matrix: in vitro; tested at: 365 nM; baseline: no-protein control; direction: higher = stronger binding
Target: RNA binding protein fox-1 homolog 2, RRM domain, GST-SBP tag (RBFOX2, Homo sapiens, UniProt O43251-10, residues 100-194)
Setting: natural RNA segment, single round, ends assumed
Residues (chain): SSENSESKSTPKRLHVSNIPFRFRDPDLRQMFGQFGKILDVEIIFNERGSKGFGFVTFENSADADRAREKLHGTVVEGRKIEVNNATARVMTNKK
Oligonucleotide | RBNS enrichment (R)
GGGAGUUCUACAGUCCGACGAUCUUUAACUAGGUGCGGUGGCUACUAAAGUUCGAAGGCACGAUAUGCGUGUCCAUCCUUACCAAAGGAUUGUGACCGCAGACCGAGGCGCCACCGGCAACUAACCUAUGACCUGGAAUUCUCGGGUGCCAA | 0.308
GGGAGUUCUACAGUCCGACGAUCCCUCUAUUUGGCUGUAGUCUGCUCUGGGGCUUUCACUGUCAGUCUGGGGCAUGGGCUGAGCAAGUAUUUGUGUGGUCAAGGAAGUGCUAUGCCAACAUCUCCCAUUGGAAUGGAAUUCUCGGGUGCCAA | 1.09
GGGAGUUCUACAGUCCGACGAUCCCGGCUGUGGAGCUCCCCUGCCAGCCCCUGGAGCUCCAGGAGGGCCUGUUGGUCCCCUGUUCAGAAUGGAGUGCAGCCCGCCAGCGGAAAGUGUUCAUUCUGCAUAGGUGUGGAAUUCUCGGGUGCCAA | 0.134
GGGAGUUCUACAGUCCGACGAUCGAAAUGCGGACACCCCGAGCGAGCACCCCAAAGUGCACAAAGCUGAGUAAAAAGCUGCCCCCUUCAAACAGAACUAGACUCAGUUUUCAAUUCCAUCCUAAAACUCCUUUUGGAAUUCUCGGGUGCCAA | 0.543
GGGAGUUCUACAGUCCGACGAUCUGACAAGGGCCAGAGCCUGUCCCUUGUCAGCAGUAGGACAUUUCCAGCUCUUAGGAAUAGAAAGGAGGACUGCUGACUGUCUGGCGCUGUAUAAAAAUGUGUAUACCAAUUGGAAUUCUCGGGUGCCAA | 0.702
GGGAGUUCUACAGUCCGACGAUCGACGAAGCCUUGAGCUGAAGGAGGUGCUGUCGGCUAGGCCUCUACUCUGGGUUUCAGAGAGUAGUAUUGGUUUCAGUCUGGUCUCAUUUCCAUUGCCUUAACGCUGGGUGUGGAAUUCUCGGGUGCCAA | 0.302
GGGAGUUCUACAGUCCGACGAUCUUCUCUCGUGAAUGGAGCUGUUUUCUUCAGAGCCUUUGCUCUGAAACAUCACGCUCCCCUGUAUGGGGAGAAGAAGGGUCAAGAUGGAUUUCUGCAGUUCCUGCGUUGGGUGGAAUUCUCGGGUGCCAA | 0.297
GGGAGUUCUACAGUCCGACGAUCUGUGUCGACAGACUCAAGGACACAACCACCUCGACCUGGUCAUGUGGCAUGCCUGUGUAUGUGUGUAACAGGAUUCUGAAUGUUAGGUUGUAAUGCUAUUCCUGUAUGGGUGGAAUUCUCGGGUGCCAA | 7.16
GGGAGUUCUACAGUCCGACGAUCGUAUUUCCUCCUGGCCCUUUUGGGUAUCAGCUUGCAGCUGGGAUACAGGCAUCUUAGAUAUUGCAGUUUCUCCUGCUAUUCACUAGAAAGAAGGCUUGGCUUUCUUGACUUGGAAUUCUCGGGUGCCAA | 0.529
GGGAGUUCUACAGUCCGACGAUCCACCCUUGCUAGGGUUUCCGUACAGCCACGUGGCCGGGGCCAUGGCUUUCAAGUGCUGUCUGGGGGGGCCAGCCCCACGAGCCUCCAACCACAUUAGAGGCUGGGAACAGUGGAAUUCUCGGGUGCCAA | 0.338
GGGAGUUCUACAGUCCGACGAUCUUUUGCAUUGACUUGCUUGUUUCCCCUUUGAAACACCUAAAAAUACCUUUCCAAAACAUCGCGAGAGCAUACAUAGACAAAAAUGAAAUAGAAAGCUCUUGCAUGCUUGAUGGAAUUCUCGGGUGCCAA | 1.67
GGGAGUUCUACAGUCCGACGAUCCACACACGCACACACAGACCCACAGCUUUGAAUGAUCAUGUUGUGGCUGAGCAGCCGCUUUUUAGACGUUAUCAUUUUGCCUCAUGUUGGAGGACUUUAUGGAAUUUAAGUGGAAUUCUCGGGUGCCAA | 0.736

Block 3 — method: RNA Bind-n-Seq; form: RNA; matrix: in vitro; tested at: not given; baseline: input RNA pool; direction: higher = stronger binding
Target: RING finger protein unkempt homolog, zinc fingers 1-6, GST-SBP tag (UNK, Homo sapiens, UniProt Q9C0B0, residues 30-357)
Setting: RNA with constant flanks, human and mouse sites, ends assumed
Residues (chain): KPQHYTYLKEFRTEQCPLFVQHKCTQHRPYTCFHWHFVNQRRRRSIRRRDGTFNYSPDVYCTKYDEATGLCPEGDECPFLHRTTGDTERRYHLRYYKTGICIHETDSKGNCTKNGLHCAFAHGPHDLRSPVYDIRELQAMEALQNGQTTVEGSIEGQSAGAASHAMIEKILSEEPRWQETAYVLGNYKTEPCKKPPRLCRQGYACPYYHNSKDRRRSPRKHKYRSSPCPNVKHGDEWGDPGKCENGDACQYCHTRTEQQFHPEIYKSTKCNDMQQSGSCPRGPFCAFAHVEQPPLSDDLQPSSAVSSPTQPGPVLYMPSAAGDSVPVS
Oligonucleotide | bound/input enrichment [ratio]
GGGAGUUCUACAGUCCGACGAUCGAAAAUGUUUUGUUUUGGCUAGCAUGUGAAGAUUUUAAGAAAAUGCAAGAUAAGACGCAGAUGCAGGAAAAGGCAAAGGAGAUCUACAUGACCUUUCUGUCCAGCAAGGCCUCAUCACAGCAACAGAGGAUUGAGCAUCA | 0.181
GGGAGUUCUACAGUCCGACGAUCAUUGUGGGAGCGCUGAUGGCCAGUGGCAAAGAAGUGGCUGGGAAGAUCCCCAAAGGGAAGUUAGUCGACUUUGAAGCCAUGACAGCCCCUGGCUCAGAGGCCUUCAGCAAAAUAGCAAAACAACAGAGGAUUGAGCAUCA | 0.282
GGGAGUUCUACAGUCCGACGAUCCUGUUCUCCUAUGGUUGAUAAAGCUUUAAAUACUAUUUAAAGUGGUUCUGGUCUGUACUUACUAGCACUUCCCUGAACAGUCUCAAAAUAGCCUAAACAUAAGAAAACAAUCCUGCAAAGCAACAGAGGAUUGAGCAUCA | 0.361
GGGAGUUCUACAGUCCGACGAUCAAAGAGCCAGUGGUUGUUGAGACAGUAGAAGAGAAAAAGGAACCUAUCCUAGUGUGUCCACCUUUACGAAGCCGAGCAUACACACCACCUGAAGAUCUCCAGAGUCGUUUGGAAUCUUACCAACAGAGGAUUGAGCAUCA | 0.161
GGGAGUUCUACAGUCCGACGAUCGGAGUUUUGAUUCUUUUAUAUGUUUUUAAAAAAAAGCUUAAGAAACAUUGCUUUAAAAAGGAAGGAAAAAAAAUACAGCAAACCAUUGUUAAAGUAGAAGAGUUUUUAGGUUGAGAAAUGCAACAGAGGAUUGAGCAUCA | 3.93
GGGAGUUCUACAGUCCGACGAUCCCUGGGACUUUGGUUCAGUGCUUGAGGCUGCCAAAGUUUGCAGAGGAGGAGAAUCUUUGUAUAGACUCAAUAACUCCUUGUGCUGACGGAAUUCAUUUGUUGGUAGGACUGCGGACAUGCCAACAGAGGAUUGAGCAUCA | 0.0688
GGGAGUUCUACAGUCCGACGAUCACUCAAAUUGAUGAUAGGAACAAAUUAACUGAACAUUUUAUCAUUACACUUCCUAUGUUACUAUCAAAGUAUUCUGCAGAUGCUGAGAAGGUAGCAAACUUGCUGCAAAUUCCACAGUAUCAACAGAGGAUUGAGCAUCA | 0.204
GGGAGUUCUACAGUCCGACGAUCCUCAGCCCAGGGCCCCAAAUCAACGUGCUGGAAGAUCCAGACUACCUAGAUCUCACACAAAUAGAAGCAAGCAAACCUCACAGUACCCAAUUUUUGCCACCAGUUGAGAUGAUUGGUCCUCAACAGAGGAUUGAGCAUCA | 0.905
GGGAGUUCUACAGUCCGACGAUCACGGUUUGCUGAGCCCGUUAGUGCGCCCGGCCGAGACACGCCGCCGCCAUGUCCCGCUACCUGCGUCCCCCCAACACGUCUCUGUUCGUCAGGAACGUGGCCGACGACACCAGGUCUGAACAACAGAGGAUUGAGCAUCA | 0.111
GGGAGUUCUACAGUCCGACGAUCAUGACGACAAGAAGGAUAUCAAAUCAAUUACUAGGUCAAGAUCUAGCAAUAAUGACGAUGAGGACCUGACACCAGAGCAGAAGGCAGAGCGUGAGAAGGAGCGGAGGAUGGCCAACAAUGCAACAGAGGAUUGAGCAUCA | 0.245
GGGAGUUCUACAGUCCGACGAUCCGAGAUGCCCGUUCUUACAACCGGUUUCAAAUCGCCACUGUCACCGAAAAAGGUGUUGAAAUAGAGGGACCAUUGUCUACAGAGACCAACUGGGAUAUUGCCCACAUGAUCAGUGGCUUUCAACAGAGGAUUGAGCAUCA | 0.0994

Block 4 — method: protein binding microarray; form: double-stranded DNA, one strand shown; matrix: in vitro; tested at: not given; baseline: not given; direction: higher = stronger binding
Target: Histone acetyltransferase KAT6A, winged helix 2, GST fusion (KAT6A, Homo sapiens, UniProt Q92794, residues 85-181)
Setting: 8-mer, flanks averaged, mean of 2 arrays, mostly near background
Residues (chain): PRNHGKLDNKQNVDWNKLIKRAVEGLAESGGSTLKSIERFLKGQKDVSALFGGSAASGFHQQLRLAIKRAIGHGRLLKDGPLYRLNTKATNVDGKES
Oligonucleotide | E-score
AACTAAAC | -0.0915
ACAATGTG | -0.208
ACGAGCGA | 0.0292
CACTATGC | -0.0121
CTTCGTGA | 0.101
GACGCCGC | 0.256
GCCTCGTA | -0.0402
ACGCCTAA | -0.0479
CGTCCAAC | -0.0269
ACCGCGCT | 0.0589
CTGCGGTA | 0.0762
GCTTCTTA | 0.0688
ATCGTAGG | -0.166
ACGGCGGG | 0.199
AAGACCAT | -0.168
ACGAAACT | 0.0949
AGCCATGC | 0.0522
CCAACATC | -0.0185
CCTGTCGA | 0.00056
GAGTTGAC | -0.0673
GTCAACTA | -0.0315

Block 5 — target: CCNB1, cyclin fold, Cln2 fusion (human); method: yeast growth competition, sequencing; matrix: yeast; setting: strong parent motif; baseline: not given; direction: higher = stronger binding
Starting sequence: MICAL3 docking peptide (human); LQLRRQLSFSEDS
Variant | normalised enrichment score
LQLRRALSFSEDS [Q6A] | 4.7
LQLRNQLSFSEDS [R5N] | 0.696
LQLRRQLSFSEGS [D12G] | 4.52
LQLFRQLSFSEDS [R4F] | 3.86
LQLRRELSFSEDS [Q6E] | 3.39
LQLRRQLSFSEMS [D12M] | 3.79
LQLRRQLSFSLDS [E11L] | 2.6
LQLRRQLSDSEDS [F9D] | -0.112
LQLRRQLMFSEDS [S8M] | 1.72
LQLRRQLSFSKDS [E11K] | 1.77
LSLRRQLSFSEDS [Q2S] | 5.27
LQLRRTLSFSEDS [Q6T] | 3.78
LQLERQLSFSEDS [R4E] | 3.95
LQLRRQLSFSEQS [D12Q] | 3.98
LQLRRQLSSSEDS [F9S] | 0.0464
